# Measurements from different studies.
# Numbered parts are unrelated; each lists some results of a single study. Positions count from the first letter of the parent shown.

# Set 1 — method: RNA Bind-n-Seq; molecule type: RNA; matrix: in vitro; concentration: 200 nM; setting: whole 134-nt RNA, ends assumed; with: 150 mM KCl; baseline: input library; reading: higher = stronger binding
# Target: Fragile X messenger ribonucleoprotein 1, C-terminal low-complexity region (Fmr1, Mus musculus, UniProt P35922)
# Constant ends, left off below: GGGAGUUCUACAGUCCGACGAUC … UGGAAUUCUCGGGUGUCAAGG
Strand,log2 enrichment
UCCUGUGCUACACAUCGUAUGUACCGAAUCAAACCCCCAAACCCCCAAACCCCCCCAAAAAAGUAUUAUGUUACGCCGUUCGGAUCUGCA,-0.000588
UGGGAGGUGGAUUUUGUUUAUUUUUUUAGCUCAUUUCCAGGGGUGGGAAUUUUUUUUGAAUAUGUGUCAUGAAUAAAGUUGUUUUUGAAA,0.178
UCCUGUGCUACACAUCGUAUGUACCGAAUCGGGGAAAAAAGGGAAAAAAGGAAAAAAGGGAAAGUAUUAUGUUACGCCGUUCGGAUCUGC,-0.124
GUCCUGUGCUACACAUCGUAUGUACCGAAUCGGUUUUUUGGUUUUUUGGGUUUUUUGGAAAGUAUUAUGUUACGCCGUUCGGAUCUGCAC,-0.683
UGUGCUACACAUCGUAUGUACCGAAUCGUGUGUGUGUGUGUGUGUGUGUGUGUGUGUGUGUGUAAAGUAUUAUGUUACGCCGUUCGGAUC,0.741
UCCUCAAGUCCUGUGCUACACAUCGUAUGUACCGAAUCGGAGGGAGGAGGGGAAAGUAUUAUGUUACGCCGUUCGGAUCUGCACUUCCAG,0.548
AUUCUAUAAAUGGCAAGUAAGCCUGAAGUGAGGAUACUGCAAUUUUCGGAGAAAAGAACAGCAGCUCUUUAAGUGUUUGCAUUUUCUAUU,-1.22
UGUGGCCGCAGGACGAGUACAUCGUGGAGUACUCACUAGAGUAUGGCUUCCUUCGCCUGUCGCAGGCCACCCGCCAGCGCCUGAGCAUCC,-0.0212
CUCAAGUCCUGUGCUACACAUCGUAUGUACCGAAUCGGUGGAGGUUUUUUUGGAAAGUAUUAUGUUACGCCGUUCGGAUCUGCACUUCCA,-0.226
CUCAAGUCCUGUGCUACACAUCGUAUGUACCGAAUCGGAAAGGAGGUUUUUGGAAAGUAUUAUGUUACGCCGUUCGGAUCUGCACUUCCA,-0.231
UGUGCUACACAUCGUAUGUACCGAAUCGGGGCCCCCCCGGGGCCCCCCCGGGGCCCCCCCGGAAAGUAUUAUGUUACGCCGUUCGGAUCU,-0.762
AGUCCUGUGCUACACAUCGUAUGUACCGAAUCGGUUUUUUUGGAAAAAAAGGUUUGGAAAGUAUUAUGUUACGCCGUUCGGAUCUGCACU,-1.63
UCCUGUGCUACACAUCGUAUGUACCGAAUCGGGGAAAGGGGAAAAAAAGGGGAAAGGGGAAAGUAUUAUGUUACGCCGUUCGGAUCUGCA,0.522
UGGGAGGUGGAUUUUGUUUAUUUUGUUAGCUCAUUUCCAGGGGUGGGAAUUUUUUUUUAAUAUGUGUCAUGAAUAAAGUUGUUUUUGAAA,0.292

# Set 2 — target: CCNB2, cyclin fold, Cln2 fusion (human); method: yeast growth competition, sequencing; matrix: yeast; setting: weak parent motif; baseline: not given; reading: higher = stronger binding
# Starting sequence: E2F2 docking peptide (human); LPAKRKLDLEGIG
Variant,normalised enrichment score
LPAKRKLDLAGIG [E10A],0.412
LPAKKKLDLEGIG [R5K],0.275
LPAKRKLDLEGAG [I12A],0.104
LPAKRKLDFEGIG [L9F],1.9
LPAKRKADLEGIG [L7A],-0.0317
LPAKRKLALEGIG [D8A],-0.045
LPAKRKLDLEGIA [G13A],0.583
APAKRKLDLEGIG [L1A],0.126
LPAKAKADLEGIG [R5A L7A],0.348

# Set 3 — method: aptamer microarray, sandwich; molecule type: DNA with 2'F-ANA; matrix: in vitro; concentration: 200 nM; with: Cy3 exosite-II aptamer, 400 nM; reading: higher = stronger binding; strand: GGTTGGTGTGGTTGG
# Target: Prothrombin, mature alpha-thrombin (F2, Homo sapiens, UniProt P00734)
# Setting: whole 15-mer aptamer, many near background
Modification,mean fluorescence intensity [a.u.]
2'F-ANA at 2 3 4 5 6 10 11 12 13,48.5
2'F-ANA at 1 6 10 11 13 15,53.1
2'F-ANA at 3 4 5 7 8 9 11 12 15,171
2'F-ANA at 1 3 4 5 8 10 11 14,50.6
2'F-ANA at 1 2 3 4 5 6 7 11 14 15,51.4
2'F-ANA at 4 8 10 12 13 15,80.8
2'F-ANA at 2 5 6 7 8 10 11 12 13 15,49.9
2'F-ANA at 1 2 3 8 9 11 13,169
2'F-ANA at 4 7 9 11 14,86.3
2'F-ANA at 3 4 5 6 8 9 14 15,51.5
2'F-ANA at 2 3 4 7 8 10 13 14 15,190
2'F-ANA at 2 6 7 11 12 13 14 15,171
2'F-ANA at 4 7 8 9 10 13,74.4
2'F-ANA at 2 6 11 12,467
2'F-ANA at 1 2 5 6 7 8 9 13 15,51.6
2'F-ANA at 1 4 5 7 8 9 11 12 13 14 15,47.2

# Set 4 — method: RNA Bind-n-Seq; molecule type: RNA; matrix: in vitro; concentration: 365 nM; baseline: no-protein control; reading: higher = stronger binding
# Target: RNA binding protein fox-1 homolog 2, RRM domain, GST-SBP tag (RBFOX2, Homo sapiens, UniProt O43251-10, residues 100-194)
# Setting: natural RNA segment, single round, ends assumed
# Constant ends, left off below: GGGAGUUCUACAGUCCGACGAUC … UGGAAUUCUCGGGUGCCAA
# Target sequence (chain): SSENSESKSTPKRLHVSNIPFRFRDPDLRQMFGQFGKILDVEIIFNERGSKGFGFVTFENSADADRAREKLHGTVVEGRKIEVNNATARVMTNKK
Strand,RBNS enrichment (R)
GGUUGCAGUGAGCUGAGACUGUGCCAUUGCACUCCAGUCGGGUUAACAGAGCAAGACACUGUCUCAAAAAAAAAAAAAAAAAAAAGUAUCAACCAACAAAUGUUACCAAG,0.606
GCAAUUUGAGCUACCUGAGGAGGAGGCAGGGCAGAAAGGGCGAGGGCCUGCCUCUGACCUGCCGUGUCCUUUGCAGGAAGGAGGUAGGCACCUUUCUGAGCUUAUUCUAU,0.606
CUUCUUUCUGAGAGUUGGCUCAGGCAGACAAGAGCUGCUGUCCUUUUAGGAAUAUGUUCAAUGCAAAGUAAAAAAAUAUGAAUUGUCCCCAAUCCCGGUCAUGCUUUUGC,0.546
AAUUUCACUUUUUGAAACUAUAGAGAGAUCCCUUUCUGAUUAGCCUACAGAACUUAAAGUGAGGGAACCAUUUCCUCUCACAGACAAAGAGGCCUGGGAUAUUAGGACUU,0.238
GGAAAUGAUACACUACUGGCUUAAGUGAUGACUCUUUCAGAUUUUCAGUAUUUUAUACAACUACUGCCACAUCCUUAUACUUUAUUGCUUUUCUGUCUUCUUCAACCUGG,0.336
GGACUCCCCUACCUAUUAGUCUGGCCCCCAUGUGCUUUGCUCCCCAUGCUCAGUGGUCACUAUCCCCUCAACUCCCCACUUAGGGUUGGAAGUUCUGCCACUGUACUCUG,0.756
CACAGAGGCCCAGCCCCAGCAUCACCUCCAGGACCCCAGCUGCUCUAAGUCCAGGACCUCUACCCUGAGGACUCAGCCCUUAGCUCUGGAGAAGGAACAUAUUUGAUAGA,0.282
ACCAUGACUUGCCGGGUGGAGCGUUUCAUUGAGAUUGGCAGUGGCACUUCCAAAAAGCUGGCAAAGCGUAACGCAGCAGCUAAGAUGCUCCUUCGAGUGCACACUGUACC,0.407
GCUAUAGGAAGAGGCCAUACCUAGAGCCAAGAACCAUGAAGGCCUGAGAGACGGCAGACUGAGCAGAAUUCCUUUUUUGAGCACGAGAGCAUUACUAGAACCAUUGUCAA,2.55
CAAGGCUGCAUUUGAAUGAUUUCCUUAGGAUGAAUGGUCCCUACACAAAGAGGCCUUGUGGGCAAACCUGGAGAACCCUCCUAAAUCCAUAGAGUUUUCAAAAUGUGAAU,2.2
GUUUGUGCAUGAUUGUUUUUAUAUUUCUCAUCAACUACACAACUUUUCCAAGUUAUAAAGUCUACUGCAGCAUUCAUGUGUAGCGGGGAAGCCUACGUAAGCAAACGACU,4.18
ACCUUGUGGCCGCCUGAGACCCUCGCGCCCCCCGCGCCCCUCUUUUUCCCCUUGAUGGAAAUUGACCAUACAAUUUCAUCCUCCUUCAGGGGAUCAAAAGGACGGAGUGG,0.243

# Set 5 — method: DHFR PCA, deep sequencing; matrix: yeast; with: (+)-ABA 1.4 µM; baseline: wild-type fitted maximum; reading: higher = stronger binding
# Target: ABI1, truncated, D143A, DHFR fusion (Arabidopsis thaliana)
# Setting: methotrexate growth selection, single substitutions
# Starting sequence: PYL1, truncated, DHFR fusion (Arabidopsis thaliana); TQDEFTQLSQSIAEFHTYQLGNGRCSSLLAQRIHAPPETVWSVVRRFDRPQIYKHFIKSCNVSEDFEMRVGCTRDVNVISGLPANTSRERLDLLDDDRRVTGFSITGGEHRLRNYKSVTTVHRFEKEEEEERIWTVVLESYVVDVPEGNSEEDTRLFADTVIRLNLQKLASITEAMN; partner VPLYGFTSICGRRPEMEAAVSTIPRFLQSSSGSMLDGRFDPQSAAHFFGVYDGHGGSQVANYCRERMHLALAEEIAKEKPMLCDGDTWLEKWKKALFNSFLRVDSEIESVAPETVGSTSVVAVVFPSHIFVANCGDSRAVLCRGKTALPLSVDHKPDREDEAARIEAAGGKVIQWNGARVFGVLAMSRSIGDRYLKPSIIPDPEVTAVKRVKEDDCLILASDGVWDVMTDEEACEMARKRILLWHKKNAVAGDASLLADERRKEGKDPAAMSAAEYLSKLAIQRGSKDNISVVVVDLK
Variant,relative binding score [%]
L138P,-3.65
E109C,24
E139H,12.3
S9Y,41.1
N149M,33.2
F103T,2.77
E127A,62.7
Y115M,0.451
T86L,17.5
Y115G,-2.09
R69A,51.1
R98Y,17.8
D159H,-14.4
E14V,14.6
S104L,0.0114
R45S,9.29
L91I,12.9

# For quick reference, copied from above (set 4):
Strand,RBNS enrichment (R)
GCAAUUUGAGCUACCUGAGGAGGAGGCAGGGCAGAAAGGGCGAGGGCCUGCCUCUGACCUGCCGUGUCCUUUGCAGGAAGGAGGUAGGCACCUUUCUGAGCUUAUUCUAU,0.606
CUUCUUUCUGAGAGUUGGCUCAGGCAGACAAGAGCUGCUGUCCUUUUAGGAAUAUGUUCAAUGCAAAGUAAAAAAAUAUGAAUUGUCCCCAAUCCCGGUCAUGCUUUUGC,0.546
AAUUUCACUUUUUGAAACUAUAGAGAGAUCCCUUUCUGAUUAGCCUACAGAACUUAAAGUGAGGGAACCAUUUCCUCUCACAGACAAAGAGGCCUGGGAUAUUAGGACUU,0.238
GGAAAUGAUACACUACUGGCUUAAGUGAUGACUCUUUCAGAUUUUCAGUAUUUUAUACAACUACUGCCACAUCCUUAUACUUUAUUGCUUUUCUGUCUUCUUCAACCUGG,0.336
GGACUCCCCUACCUAUUAGUCUGGCCCCCAUGUGCUUUGCUCCCCAUGCUCAGUGGUCACUAUCCCCUCAACUCCCCACUUAGGGUUGGAAGUUCUGCCACUGUACUCUG,0.756
CACAGAGGCCCAGCCCCAGCAUCACCUCCAGGACCCCAGCUGCUCUAAGUCCAGGACCUCUACCCUGAGGACUCAGCCCUUAGCUCUGGAGAAGGAACAUAUUUGAUAGA,0.282
ACCAUGACUUGCCGGGUGGAGCGUUUCAUUGAGAUUGGCAGUGGCACUUCCAAAAAGCUGGCAAAGCGUAACGCAGCAGCUAAGAUGCUCCUUCGAGUGCACACUGUACC,0.407
GCUAUAGGAAGAGGCCAUACCUAGAGCCAAGAACCAUGAAGGCCUGAGAGACGGCAGACUGAGCAGAAUUCCUUUUUUGAGCACGAGAGCAUUACUAGAACCAUUGUCAA,2.55
